{"data": "Results from different studies", "note": "Each numbered part is a random draw from the data of one study; scales do not carry over between parts."}
{"data": "Series 1", "target": "RNA binding protein fox-1 homolog 2, RRM domain, GST-SBP tag (RBFOX2, Homo sapiens, UniProt O43251-10, residues 100-194)", "method": "RNA Bind-n-Seq", "molecule type": "RNA", "matrix": "in vitro", "tested at": "365 nM", "notes": "natural RNA segment, single round, ends assumed", "reference": "no-protein control", "direction": "higher = stronger binding", "constant ends, left off below": "GGGAGUUCUACAGUCCGACGAUC … UGGAAUUCUCGGGUGCCAA", "Target sequence (chain)": "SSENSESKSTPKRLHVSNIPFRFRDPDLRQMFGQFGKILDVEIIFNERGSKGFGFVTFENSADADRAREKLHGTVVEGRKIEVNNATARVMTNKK"}
{"Sequence": "CUACUGACCCGUGCCCCCGGCCACCUCGGUUUCUGCUUUCGAAGACUCUGCUGCCAUCCGUUCUCCCAGUCCCAAGGGUCCACGAUGUACAAAGUCAUUUCGGCCAGUAG", "RBNS enrichment (R)": 0.371}
{"Sequence": "UGCUUGUGUGGUCCAACCUCAGUCUGGCCCCAUAGCGACUUUUGCCCCAUGAUUCUGCUUCACUGUUGGAAUCCUCUUUGAAGUUCCCCCUCUCUUUGCUAAAGCAGUGA", "RBNS enrichment (R)": 0.372}
{"Sequence": "UAAAAUGCGUUCAGAAAUUUGAUUUAUUCUUGGACUGUACUCUUCGCAUGGACUGGGAAGUUCUUUUAAAUCAUUAAAUAUUAAGACGACCAUCUCUUCUAUUAAAUUAC", "RBNS enrichment (R)": 3.33}
{"Sequence": "CGGGAACCAGACCUCUCACCGGAAAGACCGAUUAACCAUGUCACCACCACGCCAUCAUCGUCACCGUUGACAGAACAGUCCUUAAUCCAGAAAGCCUGACAUGAAGGAAG", "RBNS enrichment (R)": 0.319}
{"Sequence": "AGUUCCACUGGAAUUUGACAGUUGUCUCUACAGUCAUGCAACUCGAAGUAGAAAAGAGUGCUGGACAUAGGAAGGGGGUGCUUGGUUUGAGGGGUUAAUGUGAGGCCUUU", "RBNS enrichment (R)": 0.848}
{"Sequence": "CUAAGUUGCAGGAACAGGAUGAAAAUUCUUUAUUACCCUCUUCAACUUUUAGGACGAGCACUUGGGAGUGUGAGGCCUUCCUGGCUGCUUCUAUGUAGUCCUACCACCUG", "RBNS enrichment (R)": 0.281}
{"Sequence": "ACAGCCUGGGAUGGCUCCAACUUCUUGCCCCUUCGGACCAAGUCCUGUGGCCAUGAAGUCGUCUCCUGCCUCGAUGUCAGUGAAUCCGGCACCUUCCUAGGCCUGGGCAC", "RBNS enrichment (R)": 0.183}
{"Sequence": "GAGGUCACCGUGUCCAGUCCUUUGCCUCACCCCCACUGCCCCAGUCUGUAUGCACUGAAAAACGUCGGGUUCUGGGUCUACAAAGCCCCUGCUGCCUGUGUUUGAGGUCU", "RBNS enrichment (R)": 0.527}
{"Sequence": "GCCUUUUUAACUUUAAACAUGUUUUAGAAUUCACCUAAAGAUCAAAAUAUCAUGGAUUGAACCUCAUCAAUUGAUAGCAGUGAGUGACUGAAGCUUCCAAAUCAAGAAAA", "RBNS enrichment (R)": 0.455}
{"Sequence": "GCCAAAGGUAAAAUUGAGUUUAUUCUUUUUCAUACAGAAAUGGAUUUUGCUUUUGUUUGCUUUUUAUUUUUGUGUAAAAUCUAAAUUCCAGGAGCUAUGGGGUUCAUCCA", "RBNS enrichment (R)": 1.73}
{"Sequence": "CAGAAUAUAGGGUUGUUCUUUGGGAAAAAGAGUAUAAGAACAUAAUUUCUUUGUCCUAGACUUUACAAAUUUUUCAAAACUGUAACUUUAUUUUAAACUUGUGUAUCACA", "RBNS enrichment (R)": 0.467}
{"Sequence": "UGGGUCAUAGUCAUACCUUCUGAUGAGGUGGAGCCAACACCAGCAAAGUAUGAUGGCCCUGUAGCCUCUGACUAGUCCUGAAACAGAAGGCUGCACUCUAGGCUGAACCA", "RBNS enrichment (R)": 0.367}
{"data": "Series 2", "target": "Histone acetyltransferase KAT6A, both winged helices, GST fusion (KAT6A, Homo sapiens, UniProt Q92794, residues 1-181)", "method": "protein binding microarray", "molecule type": "double-stranded DNA, one strand shown", "matrix": "in vitro", "tested at": "not given", "notes": "8-mer, flanks averaged, mean of 2 arrays, mostly near background", "reference": "not given", "direction": "higher = stronger binding", "Construct (chain)": "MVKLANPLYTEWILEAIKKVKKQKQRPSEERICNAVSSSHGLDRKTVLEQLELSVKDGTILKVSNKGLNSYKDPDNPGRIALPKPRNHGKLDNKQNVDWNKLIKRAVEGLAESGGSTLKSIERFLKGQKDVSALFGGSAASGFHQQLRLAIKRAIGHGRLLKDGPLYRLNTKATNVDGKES"}
{"Sequence": "ACAATCTG", "E-score": -0.0958}
{"Sequence": "AAGAATCA", "E-score": -0.192}
{"Sequence": "CCAATTCG", "E-score": -0.116}
{"Sequence": "CAATGACG", "E-score": -0.028}
{"Sequence": "GGATACCC", "E-score": 0.00364}
{"Sequence": "AGTACCCC", "E-score": -0.107}
{"Sequence": "CCTATGGA", "E-score": -0.113}
{"Sequence": "ACGAACCG", "E-score": 0.139}
{"Sequence": "CGGCCCTC", "E-score": 0.13}
{"Sequence": "ATAGACCA", "E-score": -0.121}
{"Sequence": "AACTAACA", "E-score": 0.0125}
{"Sequence": "AAGGGCGA", "E-score": -0.0118}
{"Sequence": "AAAACCCT", "E-score": -0.173}
{"Sequence": "ATCTTCCG", "E-score": 0.22}
{"Sequence": "CCCACGTC", "E-score": -0.0697}
{"Sequence": "GAACCGGA", "E-score": 0.166}
{"Sequence": "CCAGCCAC", "E-score": -0.102}
{"Sequence": "ATGGATTA", "E-score": -0.135}
{"Sequence": "CTACTTTA", "E-score": -0.0878}
{"data": "Series 3", "target": "Interferon regulatory factor 7, full length, phosphomimetic (IRF7, Homo sapiens, UniProt Q92985, residues 1-503, S101K/S471D/S472D/S475D/S476D/S477D/S483D/S484D/S487D)", "method": "protein-binding microarray", "molecule type": "double-stranded DNA, one strand shown", "matrix": "in vitro", "tested at": "250 nM", "notes": "60-bp whole probe", "together with": "salmon DNA 0.4 mg/ml", "reference": "random background probes", "direction": "higher = stronger binding", "constant ends, left off below": "GCCTAGCAC … GTCTTGATTCGCTTGACGCTGCTG", "chain of UniProt Q92985 (whole entry, unmodified, looked up)": "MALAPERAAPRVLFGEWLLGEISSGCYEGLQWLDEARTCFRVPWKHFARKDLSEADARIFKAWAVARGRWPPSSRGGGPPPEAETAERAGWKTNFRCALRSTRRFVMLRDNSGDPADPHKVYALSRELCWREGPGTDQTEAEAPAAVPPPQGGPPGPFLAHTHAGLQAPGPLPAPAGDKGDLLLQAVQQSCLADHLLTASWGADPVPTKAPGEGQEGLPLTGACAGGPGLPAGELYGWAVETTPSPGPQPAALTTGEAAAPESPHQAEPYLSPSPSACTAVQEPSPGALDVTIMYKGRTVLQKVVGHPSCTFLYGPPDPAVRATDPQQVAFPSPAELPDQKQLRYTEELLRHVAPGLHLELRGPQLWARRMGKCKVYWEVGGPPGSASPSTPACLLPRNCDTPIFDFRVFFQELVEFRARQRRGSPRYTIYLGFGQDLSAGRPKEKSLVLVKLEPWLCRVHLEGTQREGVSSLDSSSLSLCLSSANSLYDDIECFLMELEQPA"}
{"Sequence": "GACGGACTGCTTATCCTGAGGTGCTAG", "log fluorescence [z-score]": -0.648}
{"Sequence": "CACGATATCGGGACTGGAGACGTGCTA", "log fluorescence [z-score]": 0.0757}
{"Sequence": "TTAGGACTGCTACTGCTTGAGTGCTAG", "log fluorescence [z-score]": -0.363}
{"Sequence": "TTAGATTTCAAACTGGATTAGTGCTAG", "log fluorescence [z-score]": "4.53e-06"}
{"Sequence": "GACGACTCCAGTTTCGAGACGTGCTAG", "log fluorescence [z-score]": 3.55}
{"Sequence": "TCACATTTCACAGTTAAACTGTGCTAG", "log fluorescence [z-score]": 1.35}
{"Sequence": "TTAGGACTGGGGTTTCGGTTAGTGCTA", "log fluorescence [z-score]": 5.66}
{"Sequence": "TTAGGTTTCCCACTGCTTTAGTGCTAG", "log fluorescence [z-score]": 1.42}
{"Sequence": "TTAGAACTGGGGACTGGATTAGTGCTA", "log fluorescence [z-score]": -0.255}
{"Sequence": "AGAGTTCCAGACAGCTCCCTGTGCTAG", "log fluorescence [z-score]": -0.122}
{"Sequence": "GACGCTATCAGACTGGAGACGTGCTAG", "log fluorescence [z-score]": -0.331}
{"Sequence": "CACGGTATCGGGACTGGGGACGTGCTA", "log fluorescence [z-score]": 0.1}
{"Sequence": "GACGGTATCGGTTTCGGGCCGTGCTAG", "log fluorescence [z-score]": 5.24}
{"Sequence": "TTTCCCATGAGTCTCAATATGTGCTAG", "log fluorescence [z-score]": 3.11}
{"Sequence": "GACGGTCTCAGTCTCGAGACGTGCTAG", "log fluorescence [z-score]": 0.0921}
{"Sequence": "TCACTCTGCTCTTTTCAAACTGTGCTA", "log fluorescence [z-score]": 0.294}
{"Sequence": "GACGATCTCAGTTTCGATACGTGCTAG", "log fluorescence [z-score]": 6.37}
{"Sequence": "TCAGAAATTTCTTTCTAACTGTGCTAG", "log fluorescence [z-score]": 0.138}
{"Sequence": "GACGCTTCCGGTTTCGGGACGTGCTAG", "log fluorescence [z-score]": 4.38}
{"Sequence": "TTAGGTATCCTTTTCCTTTAGTGCTAG", "log fluorescence [z-score]": 1.57}
{"Sequence": "TTACAACTGAGTCTCGATTAGTGCTAG", "log fluorescence [z-score]": 1.27}
{"Sequence": "GACGGTATCGACTTTGGGGACGTGCTA", "log fluorescence [z-score]": 0.477}
{"Sequence": "GACGGTTTCGGTTTCGGTACGTGCTAG", "log fluorescence [z-score]": 14.6}
{"Sequence": "GACGATCTCAGATTCGAGACGTGCTAG", "log fluorescence [z-score]": 0.693}
{"Sequence": "TTAGGTCTCGGGCTCGGTTAGTGCTAG", "log fluorescence [z-score]": 1.15}
{"data": "Series 4", "target": "Protein max, full length (MAX, Homo sapiens, UniProt P61244-2, residues 1-151)", "method": "protein-binding microarray", "molecule type": "double-stranded DNA, one strand shown", "matrix": "in vitro", "tested at": "not given", "notes": "k-mer, scored over probes, only values ≥0.25", "direction": "higher = stronger binding"}
{"Sequence": "ACGGGGTA", "E-score": 0.3}
{"Sequence": "CATGTAAC", "E-score": 0.331}
{"Sequence": "ACATATGC", "E-score": 0.296}
{"Sequence": "CGTGCGAA", "E-score": 0.39}
{"Sequence": "CATATGAC", "E-score": 0.362}
{"Sequence": "AATCACGC", "E-score": 0.417}
{"Sequence": "AACATGCA", "E-score": 0.269}
{"Sequence": "CGTGTAGA", "E-score": 0.312}
{"Sequence": "CATGGCAC", "E-score": 0.357}
{"Sequence": "CATGGGAC", "E-score": 0.345}
{"Sequence": "CGCCCACG", "E-score": 0.389}
{"Sequence": "CGTGCACG", "E-score": 0.456}
{"Sequence": "ATGGTCGC", "E-score": 0.251}
{"data": "Series 5", "target": "Centromere-binding protein 1, full length, N-terminal tag (CBF1, Saccharomyces cerevisiae, UniProt P17106, residues 1-351)", "method": "protein-binding microarray", "molecule type": "double-stranded DNA, one strand shown", "matrix": "in vitro", "tested at": "0.8 µM", "notes": "whole 60-bp probe, no competitor", "direction": "higher = stronger binding", "constant ends, left off below": "… GTCTTGATTCGCTTGACGCTGCTG", "chain of UniProt P17106 (whole entry, looked up)": "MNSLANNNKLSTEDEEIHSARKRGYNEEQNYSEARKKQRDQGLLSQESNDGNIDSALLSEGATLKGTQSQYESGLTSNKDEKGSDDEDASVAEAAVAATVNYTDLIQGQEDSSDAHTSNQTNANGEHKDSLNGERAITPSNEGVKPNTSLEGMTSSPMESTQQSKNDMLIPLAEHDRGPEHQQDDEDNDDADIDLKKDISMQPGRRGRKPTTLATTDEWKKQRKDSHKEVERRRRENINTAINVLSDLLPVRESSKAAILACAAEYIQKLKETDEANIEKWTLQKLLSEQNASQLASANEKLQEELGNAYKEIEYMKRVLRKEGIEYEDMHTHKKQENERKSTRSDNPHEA"}
{"Sequence": "CTAGTCCCGAATCGGCACATGAGCGTCATTCTATTC", "fluorescence intensity [a.u.]": 630}
{"Sequence": "CCTAACTACTATAACGTGATGGCATAGCTTCGTACA", "fluorescence intensity [a.u.]": 1000}
{"Sequence": "CTATATAATACTCAACACGTGACTTCAGCCTTCTTC", "fluorescence intensity [a.u.]": 13900}
{"Sequence": "CTATGTAATAAAAATGACACCACGTTATCAGGGTTC", "fluorescence intensity [a.u.]": 927}
{"Sequence": "CTAAGGTGTTGTATGAACGTGAAAGAAATCGAGTTC", "fluorescence intensity [a.u.]": 774}
{"Sequence": "CTAAATTCATTATGTCTGATGAATATGAAAACCTTC", "fluorescence intensity [a.u.]": 538}
{"Sequence": "CTAACAAGACAATCCAACGTGCGCAAAATGGATTTC", "fluorescence intensity [a.u.]": 566}
{"Sequence": "CTATCTGTGGTGACAAAGGTGATGCAATTACTGTTC", "fluorescence intensity [a.u.]": 563}
{"Sequence": "GAAACAAAGGGGCGCCGCGTGGTGTTACGTACTTAG", "fluorescence intensity [a.u.]": 539}
{"Sequence": "GAAAAGCAGGGGCACCACCACCCGAAGGGACAATAG", "fluorescence intensity [a.u.]": 467}
{"Sequence": "CTATGTATACCACTTCACGTGCCACCGAGTAGGTTC", "fluorescence intensity [a.u.]": 3900}
{"Sequence": "GAATTTGGAAAACAACATCAGAGAATTCCCAGATAG", "fluorescence intensity [a.u.]": 506}
{"Sequence": "GAAATTGTATTTTATGGCGTGGGTGAAAATTCATAG", "fluorescence intensity [a.u.]": 555}
{"Sequence": "CTACACACATGAGTTATCATGAGGAGTCATCAGTTC", "fluorescence intensity [a.u.]": 548}
{"Sequence": "GAAACGAGTTGCATGCACGCGTTCATGCCCGTATAG", "fluorescence intensity [a.u.]": 600}
{"Sequence": "CCTAACTACTATATGGACGTGAGATAGCTTCGTACA", "fluorescence intensity [a.u.]": 507}
{"Sequence": "GAAGGTTAATCACATGGCGTGGCTTGCTCCACGTAG", "fluorescence intensity [a.u.]": 2980}
{"note": "Some of these lines once more (series 3):"}
{"Sequence": "GACGCTTCCGGTTTCGGGACGTGCTAG", "log fluorescence [z-score]": 4.38}
{"Sequence": "CACGATATCGGGACTGGAGACGTGCTA", "log fluorescence [z-score]": 0.0757}
{"Sequence": "TTACAACTGAGTCTCGATTAGTGCTAG", "log fluorescence [z-score]": 1.27}
{"Sequence": "GACGGTATCGGTTTCGGGCCGTGCTAG", "log fluorescence [z-score]": 5.24}
{"Sequence": "GACGACTCCAGTTTCGAGACGTGCTAG", "log fluorescence [z-score]": 3.55}
